Published values of several laboratories.
Each line is one published result; not all experiments were run side by side. ± marks the error that the study gave.

| SMILES | assay | system | setting | how to read | measurement | result |
| --- | --- | --- | --- | --- | --- | --- |
| N=C(N)NCCC[C@@H]1NC(=O)[C@H](CCCCNC(=O)CC[C@H](NC(=O)CCOCCOCCOCCOCCNC(=O)CN2CCN(CC(=O)O)CCN(CC(=O)O)CCN(CC(=O)O)CC2)C(=O)NCCCC[C@@H]2NC(=O)[C@@H](Cc3ccccc3)NC(=O)[C@H](CC(=O)O)NC(=O)CNC(=O)[C@H](CCCNC(=N)N)NC2=O)NC(=O)[C@@H](Cc2ccccc2)NC(=O)[C@H](CC(=O)O)NC(=O)CNC1=O [indium-111 labelled] |  | female athymic nude mouse, U-87 MG tumour | intravenous, 3 µCi, 0.5 h, U-87 MG glioma xenograft |  | tumour uptake | 6.1 %ID/g |
| N=C(N)NCCC[C@@H]1NC(=O)[C@H](CCCCNC(=O)CNC(=O)CNC(=O)CNC(=O)c2ccc(NN=Cc3ccccc3S(=O)(=O)O)nc2)NC(=O)[C@@H](Cc2ccccc2)NC(=O)[C@H](CC(=O)O)NC(=O)CNC1=O [technetium-99m labelled] |  | athymic nu/nu mouse, female, U-87 MG glioma xenograft | intravenous, 120 min | baseline: tumour over liver | tumour to tissue ratio | 1.4 ± 0.16 |
| C[C@@H]1NC(=O)[C@H](CCC(=O)O)NC(=O)CNC(=O)[C@H](CC(=O)O)NC(=O)CNC(=O)[C@H](CCCCNC(=O)CCCCCNC(=O)[C@H](CS)NC(=O)CCCCCNC(=O)CN2CCN(CC(=O)O)CCN(CC(=O)O)CCN(CC(=O)O)CC2)NC(=O)[C@@H](Cc2ccc(O)cc2)NC1=O [gallium-68 labelled] |  | mouse, orthotopic A549 | 10 min |  | tumour to lung ratio | 1.52 |
| N=C(N)NCCC[C@@H]1NC(=O)[C@H](CCCCNC(=O)c2ccc(CNC34CNCCNCC(NCc5ccc(C(=O)NCCCC[C@@H]6NC(=O)[C@@H](Cc7ccc(O)cc7)NC(=O)[C@H](CC(=O)O)NC(=O)CNC(=O)[C@H](CCCNC(=N)N)NC6=O)cc5)(CNCCNC3)CNCCNC4)cc2)NC(=O)[C@@H](Cc2ccc(O)cc2)NC(=O)[C@H](CC(=O)O)NC(=O)CNC1=O [copper-64 labelled] | microPET | female athymic nude mouse, U-87 MG xenograft, U-87 MG tumour | intravenous, 4 h |  | tumour uptake | 6.22 ± 1.42 %ID/g |
| N=C(N)NCCC[C@@H]1NC(=O)[C@H](CCCCNC(=O)CCOCCOCCOCCOCCOCCOCCOCCOCCOCCOCCOCCOCCNC(=O)CCSC2CC(=O)N(CCC(=O)NCCCC[C@H](NC(=O)CCC(C(=O)O)N3CCN(C(CCC(=O)N[C@@H](CCCCNC(=O)CCN4C(=O)CC(SCCC(=O)NCCOCCOCCOCCOCCOCCOCCOCCOCCOCCOCCOCCOCCC(=O)NCCCC[C@@H]5NC(=O)[C@@H](Cc6ccc(O)cc6)NC(=O)[C@H](CC(=O)O)NC(=O)CNC(=O)[C@H](CCCNC(=N)N)NC5=O)C4=O)C(=O)N(CCCNC(=O)CN4CCN(CC(=O)O)CCN(CC(=O)O)CCN(CC(=O)O)CC4)CCCNC(=O)CN4CCN(CC(=O)O)CCN(CC(=O)O)CCN(CC(=O)O)CC4)C(=O)O)CCN(C(CCC(=O)N[C@@H](CCCCNC(=O)CCN4C(=O)CC(SCCC(=O)NCCOCCOCCOCCOCCOCCOCCOCCOCCOCCOCCOCCOCCC(=O)NCCCC[C@@H]5NC(=O)[C@@H](Cc6ccc(O)cc6)NC(=O)[C@H](CC(=O)O)NC(=O)CNC(=O)[C@H](CCCNC(=N)N)NC5=O)C4=O)C(=O)N(CCCNC(=O)CN4CCN(CC(=O)O)CCN(CC(=O)O)CCN(CC(=O)O)CC4)CCCNC(=O)CN4CCN(CC(=O)O)CCN(CC(=O)O)CCN(CC(=O)O)CC4)C(=O)O)CC3)C(=O)N(CCCNC(=O)CN3CCN(CC(=O)O)CCN(CC(=O)O)CCN(CC(=O)O)CC3)CCCNC(=O)CN3CCN(CC(=O)O)CCN(CC(=O)O)CCN(CC(=O)O)CC3)C2=O)NC(=O)[C@@H](Cc2ccc(O)cc2)NC(=O)[C@H](CC(=O)O)NC(=O)CNC1=O (stereo partly shown) [gallium-68 labelled] | PET | SCID mouse, U-87 MG xenograft, tumour | intravenous, 6.0 mg, 1 h |  | tumour uptake | 0.88 %ID/g |
| N=C(N)NCCC[C@@H]1NC(=O)[C@H](CCCCNC(=O)CCOCCOCCOCCOCCNC(=O)CN2CCN(CC(=O)O)CCN(CC(=O)O)CCN(CC(=O)O)CC2)NC(=O)[C@@H](Cc2ccccc2)NC(=O)[C@H](CC(=O)O)NC(=O)CNC1=O [indium-111 labelled] |  | female athymic nude mouse | intravenous, 3 µCi, 4 h, U-87 MG glioma xenograft | baseline: tumour over muscle | tumour to muscle ratio | 9.5 ± 1.31 |
| N=C(N)NCCC[C@@H]1NC(=O)[C@H](CCCCNC(=O)CNC(=O)CNC(=O)CNC(=O)CC[C@H](NC(=O)c2ccc(NN=Cc3ccccc3S(=O)(=O)O)nc2)C(=O)NCC(=O)NCC(=O)NCC(=O)NCCCC[C@@H]2NC(=O)[C@@H](Cc3ccccc3)NC(=O)[C@H](CC(=O)O)NC(=O)CNC(=O)[C@H](CCCNC(=N)N)NC2=O)NC(=O)[C@@H](Cc2ccccc2)NC(=O)[C@H](CC(=O)O)NC(=O)CNC1=O [technetium-99m labelled] |  | athymic nu/nu mouse, female, MDA-MB-435 xenograft | intravenous, 120 min | baseline: tumour over muscle | tumour to tissue ratio | 5.57 ± 0.69 |
| N=C(N)NCCC[C@@H]1NC(=O)[C@H](CCCCNC(=O)CCOCCOCCOCCOCCNC(=O)CC[C@H](NC(=O)CCOCCOCCOCCOCCNC(=O)CC[C@H](NC(=O)CN2CCN(CC(=O)O)CCN(CC(=O)O)CCN(CC(=O)O)CC2)C(=O)NCCOCCOCCOCCOCCC(=O)N[C@@H](CCC(=O)NCCOCCOCCOCCOCCC(=O)NCCCC[C@@H]2NC(=O)[C@@H](Cc3ccccc3)NC(=O)[C@H](CC(=O)O)NC(=O)CNC(=O)[C@H](CCCNC(=N)N)NC2=O)C(=O)NCCOCCOCCOCCOCCC(=O)NCCCC[C@@H]2NC(=O)[C@@H](Cc3ccccc3)NC(=O)[C@H](CC(=O)O)NC(=O)CNC(=O)[C@H](CCCNC(=N)N)NC2=O)C(=O)NCCOCCOCCOCCOCCC(=O)NCCCC[C@@H]2NC(=O)[C@@H](Cc3ccccc3)NC(=O)[C@H](CC(=O)O)NC(=O)CNC(=O)[C@H](CCCNC(=N)N)NC2=O)NC(=O)[C@@H](Cc2ccccc2)NC(=O)[C@H](CC(=O)O)NC(=O)CNC1=O [indium-111 labelled] |  | female athymic nude mouse, U-87 MG tumour | intravenous, 3 µCi, 1 h, U-87 MG glioma xenograft |  | tumour uptake | 11.1 %ID/g |
| CC(C)C[C@H](NC(=O)[C@@H]1CCCN1C(=O)[C@H](CCCCN)NC(=O)[C@@H](N)CO)C(=O)N1CCC[C@H]1C(=O)N[C@@H](CCC(=O)O)C(=O)N[C@H](C(=O)N[C@H](C(=O)N[C@@H](CC(=O)O)C(=O)N[C@@H](CCC(=O)O)C(=O)N[C@@H](Cc1ccc(O)cc1)C(=O)N[C@@H](Cc1cn(CCOCCOCCOCCNC(=O)CCc2ccc(O)c(CN(CCN(CC(=O)O)Cc3cc(CCC(=O)NCCCC[C@H](NC(=O)N[C@@H](CCC(=O)O)C(=O)O)C(=O)O)ccc3O)CC(=O)O)c2)nn1)C(=O)O)[C@@H](C)O)C(C)C [gallium-68 labelled] |  | NMRI nu/nu mouse, LNCaP xenograft | 135.34 nmol/kg, low molar activity | baseline: tumour over muscle | tumour to muscle ratio | 23.9 |
| CC(C)C[C@H](NC(=O)C[C@H](O)[C@H](CC(C)C)NC(=O)[C@H](Cc1c[nH]cn1)NC(=O)CNC(=O)[C@@H](NC(=O)[C@H](C)NC(=O)[C@H](Cc1c[nH]c2ccccc12)NC(=O)[C@H](CCC(N)=O)NC(=O)[C@@H](Cc1ccccc1)NC(=O)c1ccc(NC(=O)CNC(=O)CCC(C(=O)O)N2CCN(CC(=O)O)CCN(CC(=O)O)CC2)cc1)C(C)C)C(N)=O (stereo partly shown) [copper-64 labelled] | PET imaging | mouse, PC-3 xenograft | intravenous, 4 h, 64Cu-labelled |  | tumour uptake | 3.5 ± 1 %ID/g |

Excerpt of the above:
| SMILES | assay | system | setting | how to read | measurement | result |
| --- | --- | --- | --- | --- | --- | --- |
| N=C(N)NCCC[C@@H]1NC(=O)[C@H](CCCCNC(=O)CNC(=O)CNC(=O)CNC(=O)c2ccc(NN=Cc3ccccc3S(=O)(=O)O)nc2)NC(=O)[C@@H](Cc2ccccc2)NC(=O)[C@H](CC(=O)O)NC(=O)CNC1=O [technetium-99m labelled] |  | athymic nu/nu mouse, female, U-87 MG glioma xenograft | intravenous, 120 min | baseline: tumour over liver | tumour to tissue ratio | 1.4 ± 0.16 |
| N=C(N)NCCC[C@@H]1NC(=O)[C@H](CCCCNC(=O)CNC(=O)CNC(=O)CNC(=O)CC[C@H](NC(=O)c2ccc(NN=Cc3ccccc3S(=O)(=O)O)nc2)C(=O)NCC(=O)NCC(=O)NCC(=O)NCCCC[C@@H]2NC(=O)[C@@H](Cc3ccccc3)NC(=O)[C@H](CC(=O)O)NC(=O)CNC(=O)[C@H](CCCNC(=N)N)NC2=O)NC(=O)[C@@H](Cc2ccccc2)NC(=O)[C@H](CC(=O)O)NC(=O)CNC1=O [technetium-99m labelled] |  | athymic nu/nu mouse, female, MDA-MB-435 xenograft | intravenous, 120 min | baseline: tumour over muscle | tumour to tissue ratio | 5.57 ± 0.69 |
